Published values gathered from unrelated publications.
Protocols differ between the studies behind these lines. In brackets after ≈: the same amount, converted by molar mass.

Compound	assay	test system	conditions	scale	quantity	result
CCCCCCCCCCO[Si](CCCCN(C)C)(OCCCCCCCCCC)OCCCCCCCCCC	–	–	pH 7.5, formulated	–	zeta potential	-0.05 mV
C=CC(=O)N1CCCC(n2c(=O)c3ncccc3n(Cc3ccc(Oc4ccccc4)cc3)c2=O)C1 (stereo not shown)	–	male BALB/c mouse, plasma	intraperitoneal, 200 mg/kg, 15 min	–	concentration	76400 ng/mL
COc1cccc(OC)c1-c1cc(C(=O)NC2(C(=O)O)C3CC4CC(C3)CC2C4)nn1-c1ccc(C(=O)N(C)CCOCCOCCN(C)C(=O)[C@H](CCCCNC(=O)[C@H](CC(C)C)NC(=O)C2OC2C(=O)O)NC(=O)CN2CCN(CC(=O)[O-])CCN(CC(=O)[O-])CCN(CC(=O)[O-])CC2)cc1C(C)C.[177Lu+3] (mixture of isomers)	–	mouse, HT-29 xenograft	72 h post injection, biodistribution	baseline: tumour over lung uptake	tumour-to-lung ratio	5.14
CCCCCCCCCCCCOC(=O)c1ccc(O)cc1	–	empty Transwells without cells	5 µM, 60 min, basolateral to apical	–	mass balance	89%
CCc1cc(C)cc(CC)c1-c1c(OC(=O)C2(C(F)(F)F)CCC2)n2n(c1=O)CCOCC2	–	PBS	2 h, pH 7.4, 25 °C, 2% DMSO	–	solubility	281 µM (≈ 131 µg/mL)
O=C1NN(c2ccccc2)C(=O)C1=Cc1ccc(OCCC[18F])c2ccccc12	radio-HPLC	Wistar rat, female	intravenous, 15 min	–	intact tracer in plasma	~17%
C/C(N)=N/C(=N\S(=O)(=O)c1ccc(C(F)(F)F)cc1)N1C[C@H](c2ccccc2)C(c2ccc(Cl)cc2)=N1	–	male C57BL/6 mouse, liver	intravenous, 5 mg/kg	–	Cmax	2840 ng/mL
CN1CCC[C@]1(C)/C=C/S(=O)(=O)NC(=O)Nc1c2c(cc3c1CCC3)CCC2	measured: Pyrexia, possibly related	human	oral, 100 mg twice daily, 14 days, multiple ascending dose	–	subjects with adverse event	0%
Cc1cc(-c2ccc(C(=O)[C@@H]3CCCC[C@H]3C(=O)Nc3cnn4c3C(=O)NCC4)cc2)[nH]n1	–	human, faeces	oral, 200 mg, 24-48 h	baseline: dose	recovery of radioactivity per interval	18.6%
CSCC[C@H](N)C(=O)N[C@@H](CO)C(=O)N[C@H](C(=O)N[C@@H](C)C(=O)NCC(=O)N[C@@H](CC(C)C)C(=O)N[C@@H](CCCCN)C(=O)N[C@@H](CCCCN)C(=O)N[C@@H](CCC(N)=O)C(=O)N[C@@H](Cc1c[nH]c2ccccc12)C(=O)N[C@@H](Cc1c[nH]cn1)C(=O)N[C@@H](CCCCN)C(=O)N[C@@H](C)C(=O)N[C@H](C(=O)N[C@@H](CCC(N)=O)C(=O)N[C@@H](CCCCN)C(=O)N[C@H](C(=O)N[C@@H](CO)C(=O)N[C@@H](CCC(=O)O)C(=O)N[C@@H](CCCCN)C(=O)N[C@H](C(=O)NCC(=O)NCC(=O)N[C@@H](C)C(N)=O)C(C)C)C(C)C)[C@@H](C)O)C(C)C	circular dichroism	25% DOPS/75% DOPC liposomes	1 mM lipid	–	helical content	26%
Clc1cc(NCc2ccco2)c2cccc(OCC3COCCO3)c2n1 (stereo not shown)	–	C57BL/6 mouse, heart	oral, 30 mg/kg, 0.5 h	baseline: heart over plasma	tissue/plasma ratio	0.48
C=C(NC(=O)c1csc(-c2nc3c(cc2O)-c2nc(cs2)C(=O)NC(C(C)O)C(=O)NC(=C(C)OC)c2nc(cs2)C(=O)NC2c4nc(cs4)C(=O)NC(COC(=O)c4c5c6c(cccc6n4O)COC(=O)C(OC4CC(C)(O)C(N(C)C)C(C)O4)C2OC5)c2nc-3cs2)n1)C(N)=O (stereo not shown)	–	male Sprague-Dawley rat, plasma	intravenous, 6 mg/kg, single dose, infusion	–	Tmax	6 min
CC[C@H](C)[C@@H]1NC(=O)[C@H](Cc2ccc(O)cc2)NC(=O)CCCSC[C@@H](C(=O)N(CC(=O)N[C@@H](CC(C)C)C(=O)NCC(N)=O)Cc2ccc(F)cc2)NC(=O)[C@H](CC(N)=O)NC(=O)[C@H](CCC(N)=O)NC1=O	–	human	intranasal, 400 µg repeated doses	–	drug-related dry mouth	33%

A few entries again:
Compound	assay	test system	conditions	scale	quantity	result
CC[C@H](C)[C@@H]1NC(=O)[C@H](Cc2ccc(O)cc2)NC(=O)CCCSC[C@@H](C(=O)N(CC(=O)N[C@@H](CC(C)C)C(=O)NCC(N)=O)Cc2ccc(F)cc2)NC(=O)[C@H](CC(N)=O)NC(=O)[C@H](CCC(N)=O)NC1=O	–	human	intranasal, 400 µg repeated doses	–	drug-related dry mouth	33%
C=CC(=O)N1CCCC(n2c(=O)c3ncccc3n(Cc3ccc(Oc4ccccc4)cc3)c2=O)C1 (stereo not shown)	–	male BALB/c mouse, plasma	intraperitoneal, 200 mg/kg, 15 min	–	concentration	76400 ng/mL
